Measured values of several laboratories.
± marks the error that the study gave.

`CC(C)(C)SC[C@@H]1NC(=O)[C@H](CCCNC(=N)N)NC(=O)[C@H](Cc2ccccc2)NC(=O)[C@H](CCCNC(=N)N)NC(=O)[C@@H](NC(=O)[C@@H](N)CCCNC(=N)N)CSSC[C@@H](C(=O)N[C@@H](CCCNC(=N)N)C(N)=O)NC(=O)[C@H](CCCNC(=N)N)NC(=O)[C@H](Cc2ccc(O)cc2)NC(=O)[C@H](CCCNC(=N)N)NC(=O)[C@H](Cc2c[nH]cn2)NC(=O)[C@H](CC2CCCCC2)NC(=O)[C@H]2CCCN2C1=O` gave an IC50 of 0.234 nM (hepatitis C virus; viral replication, Renilla luciferase reporter; Huh7.5; 48 h).
For `CC(=O)[O-].CN1CCN2CCN(CC1)CCN(Cc1ccccc1)CC2.F[P-](F)(F)(F)(F)F.[Cu+2]`, the IC50 was > 20000 nM (Leishmania donovani; parasite growth, resazurin; 72 h, amastigote).
`N=C(N)NCCC[C@H](NC(=O)[C@@H]1CSSC[C@H](NC(=O)[C@@H](N)CCCNC(=N)N)C(=O)N[C@@H](CCCNC(=N)N)C(=O)N[C@@H](Cc2ccc3ccccc3c2)C(=O)N[C@@H](CCCNC(=N)N)C(=O)N[C@@H](C2CCCCC2)C(=O)N2CCC[C@@H]2C(=O)N[C@@H](CC2CCCCC2)C(=O)N[C@@H](Cc2c[nH]cn2)C(=O)N[C@@H](CCCNC(=N)N)C(=O)N[C@@H](Cc2ccc(-c3ccccc3)cc2)C(=O)N[C@@H](CCCNC(=N)N)C(=O)N1)C(N)=O` has an IC50 of 31 nM (hepatitis C virus; viral replication, Renilla luciferase reporter; Huh7.5; 48 h).
The IC50 of `CC1N=C(CCCCCCCCCCC2=CC(CCCCCCCCCCC3=NC(C)C(O)CC3)C3CCCN3C2)CCC1O` (stereo not shown) is reported as 0.83 ± 0.11 µg/mL (Leishmania donovani; Alamar Blue; promastigotes; 72 h, 26 °C).
For `O=C(C1CCN(c2nnnn2-c2ccccc2)CC1)N1CCCc2ccccc21`, the IC50 was 790 nM (Plasmodium falciparum; [3H]hypoxanthine incorporation; Cam3.I; 72 h).
For `F[P-](F)(F)(F)(F)F.F[P-](F)(F)(F)(F)F.[Cu+2].c1ccc(CN2CCCNCCN(Cc3ccccc3)CCCNCC2)cc1`, the IC50 was > 15000 nM (Leishmania donovani; THP-1-derived macrophages, intracellular amastigotes).
`COc1cc2c(=O)c(C(=O)NCCNCCO)cn(Cc3ccccc3)c2cc1OCc1cccc(Br)c1` gave an IC50 of > 20000 nM (Leishmania donovani; Bob promastigotes; 120 h).
With `CC(C)[C@@H]1NC(=O)[C@H](CCCNC(=N)N)NC(=O)[C@H](Cc2ccccc2)NC(=O)[C@H](CO)NC(=O)[C@@H](NC(=O)CCCCCNC(=O)CCCCCNC(=O)[C@H](CCCNC(=N)N)NC(=O)CCCCCNC(=O)[C@H](CCCNC(=N)N)NC(=O)CCCCCNC(=O)[C@H](CCCNC(=N)N)NC(=O)CCCCCNC(=O)[C@H](CCCNC(=N)N)NC(=O)CCCCCNC(=O)[C@H](CCCNC(=N)N)NC(=O)CCCCCNC(=O)[C@H](CCCNC(=N)N)NC(=O)CCCCCNC(=O)[C@@H](N)CCCNC(=N)N)CSSC[C@@H](C(N)=O)NC(=O)[C@@H]2CCCN2C(=O)[C@H](Cc2ccc(O)cc2)NC(=O)[C@H](CCC(=O)O)NC(=O)[C@H](Cc2c[nH]cn2)NC(=O)[C@H](CC2CCCCC2)NC(=O)[C@H]2CCCN2C1=O` the IC50 was ~0.5 nM (hepatitis C virus; viral replication, Renilla luciferase reporter virus; Huh-7.5; 24 h post infection).
For `CC(=O)[O-].CN(C)C=O.F[P-](F)(F)(F)(F)F.[Co+2].c1ccc(CN2CCN3CCCN(CC2)CCN(Cc2ccccc2)CC3)cc1`, the IC50 was 20700 nM (Leishmania donovani; parasite growth, resazurin; 72 h, promastigote).
The IC50 of `CC(C)C[C@H](NC(=O)[C@H](Cc1c[nH]cn1)NC(=O)[C@H](Cc1ccc(O)cc1)NC(=O)[C@H](CCCNC(=N)N)NC(=O)[C@H](Cc1ccc(O)cc1)NC(=O)[C@H](CCCCN)NC(=O)[C@@H](N)CCCCN)C(=O)N[C@@H](CCCCN)C(=O)N1CCC[C@H]1C(=O)N[C@@H](Cc1ccccc1)C(=O)NCCCC[C@H](NC(=O)[C@H](Cc1ccccc1)NC(=O)[C@@H]1CCCN1C(=O)[C@H](CCCCN)NC(=O)[C@H](CC(C)C)NC(=O)[C@H](Cc1c[nH]cn1)NC(=O)[C@H](Cc1ccc(O)cc1)NC(=O)[C@H](CCCNC(=N)N)NC(=O)[C@H](Cc1ccc(O)cc1)NC(=O)[C@H](CCCCN)NC(=O)[C@@H](N)CCCCN)C(N)=O` is reported as 7500 ± 150 nM (Leishmania amazonensis; intracellular amastigote growth, Giemsa staining; infected macrophages; 24 h).

Some of these lines once more:
For `CC(=O)[O-].CN1CCN2CCN(CC1)CCN(Cc1ccccc1)CC2.F[P-](F)(F)(F)(F)F.[Cu+2]`, the IC50 was > 20000 nM (Leishmania donovani; parasite growth, resazurin; 72 h, amastigote).
`N=C(N)NCCC[C@H](NC(=O)[C@@H]1CSSC[C@H](NC(=O)[C@@H](N)CCCNC(=N)N)C(=O)N[C@@H](CCCNC(=N)N)C(=O)N[C@@H](Cc2ccc3ccccc3c2)C(=O)N[C@@H](CCCNC(=N)N)C(=O)N[C@@H](C2CCCCC2)C(=O)N2CCC[C@@H]2C(=O)N[C@@H](CC2CCCCC2)C(=O)N[C@@H](Cc2c[nH]cn2)C(=O)N[C@@H](CCCNC(=N)N)C(=O)N[C@@H](Cc2ccc(-c3ccccc3)cc2)C(=O)N[C@@H](CCCNC(=N)N)C(=O)N1)C(N)=O` has an IC50 of 31 nM (hepatitis C virus; viral replication, Renilla luciferase reporter; Huh7.5; 48 h).
